# Experimental data gathered from unrelated publications.
# Compare with care: the assays were run in different laboratories.
# Target: Albumin (ALB, Homo sapiens, UniProt P02768)
SMILES,assay,test system,setting,measurement,result
COc1cccc2c1C(=O)c1c(O)c3c(c(O)c1C2=O)CC(O)(C(CO)=NNC(=O)CCCCC(=O)NNC(=O)CCCc1ccc(I)cc1)CC3OC1CC(N)C(O)C(C)O1 (stereo not drawn),gel filtration chromatography,5% albumin in PBS,"60 min, pH 7.4, 37 °C, 10% DMF",protein-bound fraction,97%
O=C(/C=C/c1ccc(O)c(O)c1)NCCCCCCCC[P+](c1ccccc1)(c1ccccc1)c1ccccc1,,human serum albumin solution,,unbound fraction,5.24%
Cc1cc(C)c(-c2cc(C)c(OP(=O)([O-])OCCC[C@H](C(=O)[O-])N3CCN(CC(=O)[O-])CCN(CC(=O)NCC(=O)[O-])CCN(CC(=O)[O-])CC3)cc2C)c(C)c1.[Gd+3],"albumin binding, variable temperature NMRD fit",albumin-bound complex,"0.1 mM, pH 7.4, 37 °C, fit 5-35 °C data, with: HSA 0.66 mM",water residency time,441 ns
O=C1CCC(N2Cc3c(NCc4ccccc4)cccc3C2=O)C(=O)N1 (stereo not drawn),"HPLC, immobilised HSA column",,concentration not given,HSA binding,89%
CC[C@@H](C)[C@@H]1NC(=O)[C@@H](Cc2ccccc2)NC(=O)[C@@H]2CCCN2C(=O)[C@H]([C@H](C)CC)NC(=O)[C@@H](Cc2ccccc2)NC(=O)[C@@H]2CCCN2C1=O,,,human serum albumin,plasma protein binding,84.2%
CCCNC(=O)C(c1ccc(CNc2cccc3c2CN(C2CCC(=O)NC2=O)C3=O)cc1)N1CCOCC1 (stereo not drawn),"HPLC, immobilised HSA column",,concentration not given,HSA binding,81%
Cc1cc(C)c(-c2cc(C)c(OP(=O)([O-])OCCC[C@H](C(=O)[O-])N3CCN(CC(=O)[O-])CCN(C(C(=O)[O-])C(=O)[O-])CCN(CC(=O)[O-])CC3)cc2C)c(C)c1.[Gd+3],variable temperature NMRD,HSA-bound complex,,ZFS modulation correlation time,18 ps
O=C1CCC(N2Cc3c(NCc4ccc(CN5CCOCC5)cc4)cccc3C2=O)C(=O)N1 (stereo not drawn),"HPLC, immobilised HSA column",,concentration not given,HSA binding,86%
CN1C(=O)[C@@H](Cc2ccc(O)cc2)NC(=O)CNC(=O)[C@H](Cc2ccc3ccccc3c2)NC(=O)[C@H](CCCNC(=N)N)NC(=O)[C@H]1CCCNC(=O)c1ccc(CNC(=O)CN2CCN(CC(=O)O)CCN(CC(=O)O)CCN(CC(=O)O)CC2)cc1 [gallium-68 labelled],HPLC on HSA column,,,plasma protein binding,86%

# Repeated from above:
SMILES,assay,test system,setting,measurement,result
Cc1cc(C)c(-c2cc(C)c(OP(=O)([O-])OCCC[C@H](C(=O)[O-])N3CCN(CC(=O)[O-])CCN(CC(=O)NCC(=O)[O-])CCN(CC(=O)[O-])CC3)cc2C)c(C)c1.[Gd+3],"albumin binding, variable temperature NMRD fit",albumin-bound complex,"0.1 mM, pH 7.4, 37 °C, fit 5-35 °C data, with: HSA 0.66 mM",water residency time,441 ns
